Measurements pooled from the literature.
Numbered parts are unrelated; each lists some results of a single study. Changes are numbered by the printed parent chain.

Study 1
Target: Histone acetyltransferase KAT6A, winged helix 2, GST fusion (KAT6A, Homo sapiens, UniProt Q92794, residues 85-181)
Technique: protein binding microarray
Molecule type: double-stranded DNA, one strand shown
Medium: in vitro
Concentration: not given
Setting: 8-mer, flanks averaged, mean of 2 arrays, mostly near background
Reference: not given
Direction: higher = stronger binding
Residues (chain): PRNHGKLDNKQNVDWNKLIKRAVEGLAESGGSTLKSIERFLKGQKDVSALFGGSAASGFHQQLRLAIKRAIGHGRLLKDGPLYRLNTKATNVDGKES
Oligonucleotide	E-score
ACTGGAGA	-0.138
GGATGGAA	0.0858
CAAGTGAC	-0.0892
CTCGACGC	0.168
GCGTGACA	0.0317
AAGTAGAC	0.0559
CCCGGTAC	-0.0177
AGACGAGA	-0.135
CGTGTAAC	-0.182
CCGATCTC	0.0419
GCATCTAC	-0.0821
CATGAAGA	0.0609
CGCCGAGA	0.135
TGTATAAA	0.0557

Study 2
Target: CCNF, cyclin fold, Cln2 fusion (human)
Technique: yeast growth competition, sequencing
Medium: yeast
Setting: strong parent motif
Reference: not given
Direction: higher = stronger binding
Parent: E2F1 docking peptide (human); PPVKRRLDFETDH
Substitution	normalised enrichment score
PPVKRRLDFCTDH [E10C]	7.92
PPVNRRLDFETDH [K4N]	6.77
PPVKRRLDMETDH [F9M]	7.07
PPVKRRDDFETDH [L7D]	-0.118
PPVKRCLDFETDH [R6C]	7.14

Study 3
Target: RING finger protein unkempt homolog, zinc fingers 1-6, GST-SBP tag (UNK, Homo sapiens, UniProt Q9C0B0, residues 30-357)
Technique: RNA Bind-n-Seq
Molecule type: RNA
Medium: in vitro
Concentration: not given
Setting: RNA with constant flanks, human and mouse sites, ends assumed
Reference: input RNA pool
Direction: higher = stronger binding
Construct (chain): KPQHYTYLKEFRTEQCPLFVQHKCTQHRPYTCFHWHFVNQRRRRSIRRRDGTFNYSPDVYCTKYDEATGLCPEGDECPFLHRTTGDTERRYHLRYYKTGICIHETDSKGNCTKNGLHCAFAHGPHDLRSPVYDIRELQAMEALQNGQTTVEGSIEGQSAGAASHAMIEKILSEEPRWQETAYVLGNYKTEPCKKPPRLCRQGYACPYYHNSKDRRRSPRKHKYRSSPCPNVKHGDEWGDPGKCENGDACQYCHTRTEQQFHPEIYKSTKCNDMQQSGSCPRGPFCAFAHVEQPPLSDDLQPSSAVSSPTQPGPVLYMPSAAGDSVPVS
Oligonucleotide	bound/input enrichment
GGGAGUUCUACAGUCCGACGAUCGAGAAAAGUGGAAUGGAGAAAAGUGGUUUGGAGUCCACUGUGUGUGUGACUAAUGUCAGGUCUUUCACUUCUGCUUUUCUCUUCUCCAUUGAAGUUCAAGUUACCAUUGGGUUUGGAGGGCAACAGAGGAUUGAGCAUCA	0.223 ratio
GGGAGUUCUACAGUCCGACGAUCGACAACAAAAUUAUAGAAUGCAAAUUUGAGAACAACAGCUGGGUCUUCAUGAGACAGAGAACAGACAAAAGUUUUCCUAAUGCCUACAACACUGCCAUGGCUGUGUGUAACAGCAUCUCACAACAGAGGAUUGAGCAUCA	3.55 ratio
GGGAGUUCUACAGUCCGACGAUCAAGCUCUUCAGAGAAGUAAGAAUAAUGAAGAUUUUAAAUCAUCCCAAUAUAGUGAAGUUAUUCGAAGUCAUUGAAACUGAAAAAACACUCUACCUAAUCAUGGAAUAUGCAAGUGGAGGUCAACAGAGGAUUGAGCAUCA	1.24 ratio
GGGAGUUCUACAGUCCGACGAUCCUGAGCACAGGGGAGUUCUUGAAACUCCCUUUUGAGCGUCUUGCCUUCGUGCUUUCCAGUAAUAGCCUUAAGCACUGUACUGAACUUGAGCUCUUUAAGGCUACCUGUCGUUGGCUUCGCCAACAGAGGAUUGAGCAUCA	0.0932 ratio
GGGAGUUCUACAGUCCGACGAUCCAGCUGCUUACACAAGAUGUAGAAAAAUUUUGUAACAGUGUAGUCGAUCUGUAUUCAAAUCUUAGUAAGCCAUUUUUAGACAUAGUUUUGUAUAUCUUUAAGUUAACGAGUGCAAUUGGACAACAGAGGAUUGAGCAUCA	19.9 ratio
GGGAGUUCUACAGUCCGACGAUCCUUAAUAGGCUACACUAGUGGUAGGUAGUGUAGACAGAGAUGUAAAUGUGCUGUUCCAAAACUGUGAGCUGCCUCGUGAGGAAUCUGGCACGGCAGUGUGAUGCUUCUAGGGCGGCACAGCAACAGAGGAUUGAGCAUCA	0.461 ratio
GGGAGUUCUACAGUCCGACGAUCUUUGAUGAGUUCAGAACAGUGCUGUAACUGUUUUUCCUACUUCUUCAAUGGAAGGAUUGUCCUUAGAUCUUCCCACCAUCACAAAUGAAUUUGAAGAUGAAAAGAAACUCAGUUGCUCAUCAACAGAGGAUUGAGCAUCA	0.0547 ratio
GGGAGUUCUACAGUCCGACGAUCUCUGCGCGUGCGCCGGUGGCGGGACUCUGGGGAAAAUGGCUGCGUCUUCGAGUGGGAACUUAUAGAAAUGCUGGCAAUUUCAAGAAACCAAAAGUUGUUACAGGCUGGAGAGGAAAACCACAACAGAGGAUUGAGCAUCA	0.13 ratio
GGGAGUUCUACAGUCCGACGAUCUAUUUUUACAGCCACACAAUUCUUGGCAUGUAUUAAGAAAAAAAAAAAUCCCUGUUCAAGUAGUUUUUCCACCUAUCAGCACUGAGUAAAUGCCAUAAAUCCAUUGAAAUGGUCUAAAUGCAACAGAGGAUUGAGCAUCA	0.245 ratio
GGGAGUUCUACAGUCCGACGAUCACAAAUUCUAAGUCUGAUGAAGACAGGCAGCUAGCUAACUCAUUAGAGAGUGUAGGGCCAAUAGAUUACGUUCUUCCUAGUUGUGGUAUUAUUGCCUCAGCGCCUCGAUUGGGCAGUCGGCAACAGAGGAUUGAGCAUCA	1.03 ratio
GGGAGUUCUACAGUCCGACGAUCCUCAAGAACCCCCACUUCAUCUUUGACGUGCAUGUCCACGAGGUGGUGGACGCCUCGCUGUCAGUCAUCGCGCAGACCUUCAUGGAUGCCUGCACGCGCACGGAGCAUAAGCUGAGCCGCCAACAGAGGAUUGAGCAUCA	0.0714 ratio

Mixed results
Substance	target or system	assay	system	setting	how to read	quantity	value
RRP8 (Homo sapiens, UniProt O43159)	CEBPZ (Homo sapiens, UniProt Q03701)	cross-linking MS	cell fractions	with: DMTMM		cross-linked residues	E272 to K228
PhoQ, residues 284 288 289 292 302 303 AAQSYM	PhoP, residues 12 14 15 18 19 NQFFI (Escherichia coli, UniProt P23836)	Sort-seq, item: YFP reporter	E. coli	PhoQ-PhoP variant library, with: 10 µM Mg2+	reference: high Mg2+ state, higher = stronger signaling	fold induction	1.71
NUP62 (Homo sapiens, UniProt P37198)	NUP188 (Homo sapiens, UniProt Q5SRE5)	cross-linking MS	cell fractions	with: DSSO		cross-linked residues	S418 to K109
MDH2 (Homo sapiens, UniProt P40926)	ACO2 (Homo sapiens, UniProt Q99798)	cross-linking MS		hits only		interaction screen	cross-linked
SF3B3 (Homo sapiens, UniProt Q15393)	PHF5A (Homo sapiens, UniProt Q7RTV0)	cross-linking MS		hits only		interaction screen	cross-linked

Excerpt of the above (study 1):
Oligonucleotide	E-score
CTCGACGC	0.168
GCGTGACA	0.0317
AAGTAGAC	0.0559
CCCGGTAC	-0.0177
AGACGAGA	-0.135
